# Results gathered from unrelated publications.
# Parts stem from different laboratories: compare values within a part only.

# Study 1 — technique: RNA Bind-n-Seq; form: RNA; medium: in vitro; tested at: 365 nM; reference: no-protein control; direction: higher = stronger binding
# Target: RNA binding protein fox-1 homolog 2, RRM domain, GST-SBP tag (RBFOX2, Homo sapiens, UniProt O43251-10, residues 100-194)
# Setting: natural RNA segment, single round, ends assumed
# Residues (chain): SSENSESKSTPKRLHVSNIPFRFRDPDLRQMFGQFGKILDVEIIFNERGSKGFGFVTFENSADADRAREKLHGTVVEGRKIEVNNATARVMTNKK
Oligonucleotide,RBNS enrichment (R)
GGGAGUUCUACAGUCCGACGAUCGGAAUAAUAAUUUUCCUCCUAAACAAAAACACAUUGAGUUUAAGUCUCUGACUCUUGCCUUUCCACCUGCUUUCUCCUGGGCCCGCUUUGCCUGCUUGAAGGAACAGUGCUGGAAUUCUCGGGUGCCAA,1.3
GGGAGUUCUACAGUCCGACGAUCCUCAGCACCACUUUCAUUCUGGACCUGGGACCUUAGGAGCCGGGUGACAGCACUAACCAGACCUCCAGCCACUCACAGCUCUUUUUAAAAAACAGCUUCAAAAUAUGCAGUGGAAUUCUCGGGUGCCAA,0.497
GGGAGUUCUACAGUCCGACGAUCAAAUUUUUUUUGAAUGUGUGGAAGUAAUUUUAGUAUAAUUAGAUUUUUUCCAUAUUUUUGAAAGAUUUUUCAGAUGUGAACAUUAAAAAUAGGGAUUAAAUGUCUAGGCUUGGAAUUCUCGGGUGCCAA,1.29
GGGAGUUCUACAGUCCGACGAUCAAAGACUGCAACAGAAACUCCCCAGCCUAGCACUCCAGAGUCCAAGGGAAGCCACCUUCCAAGAACUGGAACAUGUGCAUCUUUUGUGCCACCUUGUACAAAGCCAGCUGUGGAAUUCUCGGGUGCCAA,0.377
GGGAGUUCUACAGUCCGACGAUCAUGAACAAUCUGCAGCACACUGAAGGGCAUUCUGAAUUGAAGCUUGGAGAACUGCACUAAACCCACUAAACAGAUGCAAAAACCUGACCAGGCCCAACACCCACCCUGCCUGGAAUUCUCGGGUGCCAA,0.661
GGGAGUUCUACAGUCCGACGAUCCAUUGAAGGGAGGAGUUGCUUAAACCAAUGGGACUAAAACCUGAUGGGACAAUAACGCCUUUGGAGGAAGCACUCAACCAGUACUCUGUCAUCGAAGAGACCAGCUCUGAUGGAAUUCUCGGGUGCCAA,0.334
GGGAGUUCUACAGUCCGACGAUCGUUCUCAUGCUGCUAUUAAAGACAUACCUGACACUGGGUAAUUUAUAAAGGAAAGAGGUUUAAUGGACUCAGUUCCACAUGGCUGGGGACGCCUCACAAUCAUGGUGGAAUGGAAUUCUCGGGUGCCAA,0.384
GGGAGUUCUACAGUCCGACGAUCACCUUGAACCUACAAACCUCCAUGGACAGUCAGCAGGUGGGAAGACAUGGUGUUUGCCCAUAUCACUUCCAUUUUGUAUACACUCUGGAUUUGUGUAGGCUGUAUUCCAGUGGAAUUCUCGGGUGCCAA,0.261
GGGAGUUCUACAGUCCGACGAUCUCCCCCAAGGUCUCUCCAUUCCAGUUUGGUCAAAUCUGCCAGUGCACUUUGUUAGAUGUAAAAUAAACCACGGGCCUUCCACAUGGGGUGACCCCCGCCCUGUCCCUUUCUGGAAUUCUCGGGUGCCAA,1.94
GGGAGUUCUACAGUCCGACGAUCCUUGGGAAUGCUGCGCUCUCUGUAGUUUCCAUCAUUGGUGCAGUUCGAACGAAUGAGUAGAGUUCAGAGGUCUUCGUGUUCACAUUUAAAACUAGAUAAAUGACCUCAUUUGGAAUUCUCGGGUGCCAA,0.537
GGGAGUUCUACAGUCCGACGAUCCUGAGGCCUAGAAGGGAGGAGUGGUCCACCCACGGUCCCAGCACAAGGCAGAGCUGGGAUGAAAACAGGGCUGAAAAGACUCAGGGCCAAUUAUUGGCUGAGCCCACGGUUGGAAUUCUCGGGUGCCAA,0.329
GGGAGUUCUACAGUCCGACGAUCCUGUCAUUACCAGUUGUGGUCCUAGCAUCUAACCCUGAAACCAUCCUAGGUGACAUUUUUAGAAUUAAUACUUAAAUGUUAAACAGGGGGAAAUGAAGCUUAAUCAUGGUUGGAAUUCUCGGGUGCCAA,0.354

# Study 2 — technique: protein binding microarray; form: double-stranded DNA, one strand shown; medium: in vitro; tested at: not given; reference: not given; direction: higher = stronger binding
# Target: Histone acetyltransferase KAT6A, winged helix 2, GST fusion (KAT6A, Homo sapiens, UniProt Q92794, residues 85-181)
# Setting: 8-mer, flanks averaged, mean of 2 arrays, mostly near background
# Residues (chain): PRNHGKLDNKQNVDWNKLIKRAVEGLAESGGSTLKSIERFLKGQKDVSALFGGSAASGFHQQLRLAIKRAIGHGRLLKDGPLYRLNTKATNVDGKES
Oligonucleotide,E-score
AAGTTATG,-0.112
GGACCGCC,0.103
CGTTTCGC,-0.0248
CCTTAAAA,-0.0325
CGTAACGC,0.0297
AAAGTCCC,-0.0702
ATCGAGTC,-0.138
CCTGAACA,-0.0605
AGCCCCAT,-0.079
CAGAGGTC,-0.101
CCTGGCGC,0.244
AACGGTGC,0.0661
ACCGCCTC,0.186
AGTTCCCG,0.0521
CAGCACTG,-0.0888
CACCGGAC,0.201
ATCAAAAC,0.151
GAGGTCAA,-0.0251
GAGAAAAA,0.125
AGACCTGG,-0.124
CACGTCAG,-0.0393
CCAGGCCC,0.0459
GCTTAAAA,0.184
CTTGGACC,-0.0449
CCTCCTCA,-0.00107

# Study 3 — technique: protein-binding microarray; form: double-stranded DNA, one strand shown; medium: in vitro; tested at: 2540 nM top; setting: 60-bp whole probe; added: salmon DNA 0.4 mg/ml; reference: random background probes; direction: higher = stronger binding; shared flanks, not repeated: GCCTAGCAC … GTCTTGATTCGCTTGACGCTGCTG
# Target: Interferon regulatory factor 3, full length, phosphomimetic (IRF3, Homo sapiens, UniProt Q14653, residues 1-427, S386D/S396D/S398D/S402D/T404D/S405D)
# Chain of UniProt Q14653 (whole entry, unmodified, looked up): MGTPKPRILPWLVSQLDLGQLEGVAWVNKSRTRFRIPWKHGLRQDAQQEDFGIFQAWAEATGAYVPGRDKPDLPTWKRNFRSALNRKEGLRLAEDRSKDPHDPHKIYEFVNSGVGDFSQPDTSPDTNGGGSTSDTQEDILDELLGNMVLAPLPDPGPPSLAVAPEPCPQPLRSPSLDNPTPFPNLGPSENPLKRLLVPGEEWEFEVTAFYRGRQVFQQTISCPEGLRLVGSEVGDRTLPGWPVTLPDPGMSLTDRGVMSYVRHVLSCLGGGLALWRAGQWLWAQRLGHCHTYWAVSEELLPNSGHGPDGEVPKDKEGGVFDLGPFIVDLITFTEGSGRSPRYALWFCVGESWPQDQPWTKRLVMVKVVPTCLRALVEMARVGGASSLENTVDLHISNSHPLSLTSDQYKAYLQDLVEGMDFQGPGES
Oligonucleotide,fitted relative affinity [z-score]
TTAGAACTGAGAATGGATTAGTGCTAG,-0.398
TTAGGTTCCGGATTCGGTTAGTGCTAG,5.06
GATGGTATTTGCCTGTGGTCGTGCTAG,-0.627
TCATATATATTATATATTACTGTGCTA,0.56
TTAGGTTTCATTATCCTTTAGTGCTAG,5.02
GACGATTTCAGTCTCCAGACGTGCTAG,2.61
GCCGATTTCGGGACTGGAGACGTGCTA,2.5
CTAGGACTGGACTTTCGGTTAGTGCTA,1.11
GGATGAGCAAGGGGGCCTCGGTGCTAG,-1.01
TTAGGTTTCGGGTTTAGGTTAGTGCTA,5.26
AGCTGTTTCTGTGTCACAGAGTGCTAG,3.2
TGTGGGCGTAGGCCCGGAGCGTGCTAG,-1.42
TTTGGTCTCCTACTGCTTTAGTGCTAG,1.15
TGTTCATTTTCAAAACTGTTGTGCTAG,2.67
TCATTGTTGTTTTTTGGACTGTGCTAG,0.656
GACGGTTTCCTTTCCCTGGCGTGCTAG,10.2
TTAGCTATCAGACTGGATTAGTGCTAG,-0.13
CACGAACTGGGGTTTCGAGACGTGCTA,0.291
ACAAATACAAGTTTCTCCTTGTGCTAG,1.01
GACGGTCTGGGACTGGGGACGTGCTAG,-0.82
GACGGTTTCGGGACTGGGTACGTGCTA,4.73
TCACAAGTTTCACGTCTTACTGTGCTA,1.12
TTAGATTTCCTTCTCCTTTAGTGCTAG,6.04
TTAGGTTTTGACTTTCGGTTAGTGCTA,1.66
GACGGGTTCGGTATCGGGACGTGCTAG,2.36

# Study 4 — technique: competition protein-binding microarray; form: double-stranded DNA, one strand shown; medium: in vitro; tested at: 2 µM; added: Pho4 competitor, 0.05 µM; direction: higher = stronger binding
# Target: Centromere-binding protein 1, full length, His-tagged (CBF1, Saccharomyces cerevisiae, UniProt P17106, residues 1-351)
# Chain of UniProt P17106 (whole entry, looked up): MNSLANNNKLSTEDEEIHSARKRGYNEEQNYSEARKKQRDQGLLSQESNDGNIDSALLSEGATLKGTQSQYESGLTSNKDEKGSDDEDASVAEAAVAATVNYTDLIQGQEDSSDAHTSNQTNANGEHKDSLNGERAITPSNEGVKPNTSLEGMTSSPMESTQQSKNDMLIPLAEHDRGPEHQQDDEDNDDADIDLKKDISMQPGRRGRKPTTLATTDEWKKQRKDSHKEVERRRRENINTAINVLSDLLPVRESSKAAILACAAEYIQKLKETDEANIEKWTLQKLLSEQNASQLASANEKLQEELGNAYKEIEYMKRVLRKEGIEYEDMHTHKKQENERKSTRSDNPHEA
# Setting: whole 60-bp probe, lowest competitor level
Oligonucleotide,fluorescence intensity
ACTTAGCGCAAACGTCACCTGGGTGGCGTTTTCCGCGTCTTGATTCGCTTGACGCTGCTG,77.3 a.u.
TTGTCTCATTACGTTCAGGTGACTACATTATCGAGCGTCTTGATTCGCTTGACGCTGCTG,547 a.u.
AAAGCGGTAATTTGTCACAACACTTCACATATCTATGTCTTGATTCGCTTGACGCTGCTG,105 a.u.
CTTCTGTAAATTTGTAGAGTGGGTGGACGCGCCCCGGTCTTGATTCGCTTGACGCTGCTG,89 a.u.
AAATTACTAAGTTGTCACTTAACTTACCCCGTATGAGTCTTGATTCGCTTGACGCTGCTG,70.6 a.u.
CGGGGTTAAGTTTGCATTGTGGGTGGCTTGCAGCAGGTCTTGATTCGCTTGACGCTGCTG,74.6 a.u.
TCTCAAGATCTGTTCCTCGTGGCCGAATGGTTACGGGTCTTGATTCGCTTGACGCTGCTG,71.4 a.u.
TCAAAATTGGCATCGCACGTGAAGTTACATATATCCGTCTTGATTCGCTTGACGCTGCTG,751 a.u.
TGCGCAACAACTTGTCACCATACTTTATGTCTAGAAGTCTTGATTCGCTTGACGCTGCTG,83 a.u.
CTATCCAGCCACTCCCATGTGATAACGGTCGAAGTGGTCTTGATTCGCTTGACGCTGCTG,245 a.u.
CGTCCTAGTGATTGCTGGGTGGGTGCCATGAGGAAGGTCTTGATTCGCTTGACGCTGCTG,75.4 a.u.
CTCTCGATGGGCCATCACGTGAAGTAGGCACTATCAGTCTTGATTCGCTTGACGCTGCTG,2180 a.u.
TTAAAATGGTACTGGCACGTGATGGTAGTGGCTCAAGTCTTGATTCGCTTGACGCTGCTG,5330 a.u.
CGGGGTTAAGTTTGTCACTAGACTTGCTTGCAGCAGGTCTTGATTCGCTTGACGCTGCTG,76.7 a.u.
GGATCCCATCCAACACACGTGTTGAAATGACATCAGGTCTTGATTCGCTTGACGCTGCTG,1060 a.u.
GACTAGGTTTGAAAGCACGTTGGAAGACATACGGAAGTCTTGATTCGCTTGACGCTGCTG,99.4 a.u.
TCATCGCACATTTTGCACGATGAGGACACAGGAAATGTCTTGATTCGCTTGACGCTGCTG,70.2 a.u.
AATAGCGAGGGTCGCCCCGTGGGACATGCTACTGAGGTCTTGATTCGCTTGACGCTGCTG,70.4 a.u.
CGTCCTAGTGATTGCGGAGTGGGTGCCATGAGGAAGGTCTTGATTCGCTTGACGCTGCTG,78.3 a.u.
TTTTATCTCCGATAGTACGTGGGACTTTATTTATGGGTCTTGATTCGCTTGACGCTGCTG,77.3 a.u.
CGAGAATCAGGCACCCGCGTGTGAACGGCGTCATTCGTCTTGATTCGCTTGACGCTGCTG,62.7 a.u.
AAAGCGGTAATTTGTCACAGTACTTCACATATCTATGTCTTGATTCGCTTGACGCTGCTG,85.7 a.u.
CGATGTTGAGGAAGTCCTGTGATATTTCAAATGTGGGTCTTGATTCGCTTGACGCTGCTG,110 a.u.
CTTCTGTAAATTTGCCGCGTGGGTGGACGCGCCCCGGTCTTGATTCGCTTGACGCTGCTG,89.1 a.u.
CTAACGAAGGTTTTTCACGTGCATTACAAGCCAAGTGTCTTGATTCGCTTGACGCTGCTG,923 a.u.

# A few entries again (study 3):
Oligonucleotide,fitted relative affinity [z-score]
CTAGGACTGGACTTTCGGTTAGTGCTA,1.11
GGATGAGCAAGGGGGCCTCGGTGCTAG,-1.01
TTAGGTTTCGGGTTTAGGTTAGTGCTA,5.26
AGCTGTTTCTGTGTCACAGAGTGCTAG,3.2
TGTGGGCGTAGGCCCGGAGCGTGCTAG,-1.42
TTTGGTCTCCTACTGCTTTAGTGCTAG,1.15
TGTTCATTTTCAAAACTGTTGTGCTAG,2.67
TCATTGTTGTTTTTTGGACTGTGCTAG,0.656
GACGGTTTCCTTTCCCTGGCGTGCTAG,10.2
TTAGCTATCAGACTGGATTAGTGCTAG,-0.13
